Measurements collected from several papers.
Numbered parts are unrelated; each lists some results of a single study. Substitutions count along the parent as printed.

Sample 1
Target: CCNA1, cyclin fold, Cln2 fusion (human)
Technique: yeast growth competition, sequencing
Matrix: yeast
Setting: weak parent motif
Relative to: not given
Reading: higher = stronger binding
Starting sequence: ORC1 docking peptide (human); PRARKRLELGNLG; partner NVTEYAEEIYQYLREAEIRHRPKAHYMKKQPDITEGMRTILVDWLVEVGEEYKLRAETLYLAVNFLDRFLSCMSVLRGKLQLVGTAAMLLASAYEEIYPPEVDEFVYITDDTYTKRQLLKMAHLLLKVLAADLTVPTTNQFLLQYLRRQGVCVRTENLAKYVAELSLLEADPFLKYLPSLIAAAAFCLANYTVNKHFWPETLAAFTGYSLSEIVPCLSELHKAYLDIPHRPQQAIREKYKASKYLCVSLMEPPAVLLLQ
Variant | normalised enrichment score
PRARKWLELGNLG [R6W] | 0.0667
PRARKRLEYGNLG [L9Y] | 0.668
PRARKRLELSNLG [G10S] | 0.327
PRARKRLRLGNLG [E8R] | -0.0483
PRARKRTELGNLG [L7T] | -0.0816
PRARKRLETGNLG [L9T] | 0.457
PRARTRLELGNLG [K5T] | 0.3
PIARKRLELGNLG [R2I] | 0.633

Sample 2
Target: Ras GTPase-activating protein-binding protein 1, RRM domain (G3BP1, Homo sapiens, UniProt Q13283)
Chain of UniProt Q13283 (whole entry, looked up): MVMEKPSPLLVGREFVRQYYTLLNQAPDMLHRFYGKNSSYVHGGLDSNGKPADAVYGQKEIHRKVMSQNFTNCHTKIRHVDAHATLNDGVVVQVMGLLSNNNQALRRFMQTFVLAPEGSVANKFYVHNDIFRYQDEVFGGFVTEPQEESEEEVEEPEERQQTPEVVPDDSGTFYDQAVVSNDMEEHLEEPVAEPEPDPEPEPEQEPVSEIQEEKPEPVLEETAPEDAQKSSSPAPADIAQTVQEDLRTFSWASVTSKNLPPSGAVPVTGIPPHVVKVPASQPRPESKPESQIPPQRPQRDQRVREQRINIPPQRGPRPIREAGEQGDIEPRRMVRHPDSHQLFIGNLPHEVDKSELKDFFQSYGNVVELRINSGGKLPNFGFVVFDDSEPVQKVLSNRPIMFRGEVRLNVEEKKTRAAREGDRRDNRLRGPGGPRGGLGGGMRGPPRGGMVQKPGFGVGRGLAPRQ
Technique: RNA Bind-n-Seq
Form: RNA
Matrix: in vitro
Tested at: 1 µM
Setting: whole 134-nt RNA, ends assumed
Together with: 150 mM KCl
Relative to: input library
Reading: higher = stronger binding
Sequence | log2 enrichment
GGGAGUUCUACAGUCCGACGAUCUCCUCAAGUCCUGUGCUACACAUCGUAUGUACCGAAUCGGGUGGUGGGUGGAAAGUAUUAUGUUACGCCGUUCGGAUCUGCACUUCCAGCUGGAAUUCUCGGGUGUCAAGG | -0.124
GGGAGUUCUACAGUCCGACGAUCGCAGGAAGUAAAAACAAAUGGAAAUGCUUCGGAUAGUGGCAGGGGUGGGGGUUGCUAAGGAAAGGGUGGGAUGGGAGUGGGUAAAGAGUAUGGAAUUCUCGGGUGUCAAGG | 1.39
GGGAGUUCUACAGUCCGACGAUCAGUCCUGUGCUACACAUCGUAUGUACCGAAUCGGGGAAAAAGGGGAGGGGAAAGGGGAAAGUAUUAUGUUACGCCGUUCGGAUCUGCACUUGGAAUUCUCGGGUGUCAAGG | 0.883
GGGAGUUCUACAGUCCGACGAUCAAGUCCUGUGCUACACAUCGUAUGUACCGAAUCGGGGAAAAGGGAAAAGGAAAAGGAAAGUAUUAUGUUACGCCGUUCGGAUCUGCACUUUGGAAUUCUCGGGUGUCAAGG | -0.133
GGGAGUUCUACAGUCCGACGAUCUGGGAGGUGGAUUUUGUUUAUUUUUUUAGCUCAUUUCUAGGGGUGGGAAUUUUUUUUUAAUAUGUGUCAUGAAUAAAGUUGUUUUUGAAAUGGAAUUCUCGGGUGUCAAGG | 2.07
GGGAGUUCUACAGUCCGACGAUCCCAUAGACCCCUUUCUUCUCCCCUUCCCCACGGUAGGAACAUAGCGUGUUUAUAUUUUAUGGCCAAACUAUUUUGAAUUUUGUUGUCCGGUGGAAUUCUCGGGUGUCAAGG | -0.212
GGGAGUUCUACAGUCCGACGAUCCACAGACAACACGCACCCACACAGACACAGAGGGAAGGGGUUGGGAUGGGGACAGCGUGCACAGCAGGGCGGGGUAGGACCCCAGCCCCUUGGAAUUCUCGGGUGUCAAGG | 0.00113
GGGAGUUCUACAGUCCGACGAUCCCUGUGCUACACAUCGUAUGUACCGAAUCGGGGAAAAAAAGGGGUUUUUGGGGAAAGGGGAAAGUAUUAUGUUACGCCGUUCGGAUCUGCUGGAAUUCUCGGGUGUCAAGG | 0.763
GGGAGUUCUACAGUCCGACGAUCUGGGGUAGACCAGUUCCAUGGCACUGAAUAUGUGUGCUGCCCUCAGACAAAGAUUAUUGGAUCUGUGUCAAAAGAAGAGGAAGAGGAAGAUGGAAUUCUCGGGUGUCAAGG | -0.12
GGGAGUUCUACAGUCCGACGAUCCAAGUCCUGUGCUACACAUCGUAUGUACCGAAUCGGUUUUUGGUUUUUGGAAAGGAAAGUAUUAUGUUACGCCGUUCGGAUCUGCACUUCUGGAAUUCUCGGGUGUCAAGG | -0.2
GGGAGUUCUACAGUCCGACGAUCUGGCCCUGGUGGCAUGCGGGGAGGAAGAGGUGGCCUCAAGGAUCGUGGUGGUCCCGGUGGAAUGUUCAGAGGUGGCCGUGGUGGAGACAGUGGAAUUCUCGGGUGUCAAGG | 0.924
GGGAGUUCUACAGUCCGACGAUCACCAUGCAGGUGGGCAUCUUUGGGAAGUGGGGCAAGGGGGGGAUAGGGAGGGGGGUAAGACUUUGGGAACAGGUGGUCCCAGGUCGUUUCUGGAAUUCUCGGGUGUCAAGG | 1.13
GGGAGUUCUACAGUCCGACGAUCCAAGUCCUGUGCUACACAUCGUAUGUACCGAAUCGGGGAGGGGUUUGGGGUGGGGAAAGUAUUAUGUUACGCCGUUCGGAUCUGCACUUCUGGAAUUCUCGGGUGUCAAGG | 0.929
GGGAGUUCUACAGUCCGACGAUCACCAUGCAGGUGGGCAUCUUUGGGAUGUGGGGCAAGGGGGGGAUAGGGAGGGGGGUAACACUUUGGGAACAGGUGGUCCCAGGUCGUUUCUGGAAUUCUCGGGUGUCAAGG | -0.499

Sample 3
Target: ABI1, truncated, D143A, DHFR fusion (Arabidopsis thaliana)
Technique: DHFR PCA, deep sequencing
Matrix: yeast
Setting: methotrexate growth selection, single substitutions
Together with: (+)-ABA 0.11 µM
Relative to: wild-type fitted maximum
Reading: higher = stronger binding
Starting sequence: PYL1, truncated, DHFR fusion (Arabidopsis thaliana); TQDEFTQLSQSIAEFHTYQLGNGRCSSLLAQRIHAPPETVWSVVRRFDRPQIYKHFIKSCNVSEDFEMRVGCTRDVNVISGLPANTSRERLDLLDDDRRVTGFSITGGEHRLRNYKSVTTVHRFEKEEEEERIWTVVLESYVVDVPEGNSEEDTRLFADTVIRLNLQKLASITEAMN
Variant | relative binding score
V136I | 39%
F47G | 0.704%
F157Y | 44.2%
V121Y | -8.13%
S150H | -6.15%
T17F | -3.96%
F124T | 0.806%
D75G | -3.03%
R155I | 7.5%
F56N | 5.07%
T160C | 1.38%
D159T | -8.68%
A175C | 20.8%

Other studies, line by line
Molecule | target | assay | system | conditions | scale | measurement | result
PhoQ, residues 284 288 289 292 302 303 ALAMYF | PhoP, residues 12 14 15 18 19 QWHVF (Escherichia coli, UniProt P23836) | Sort-seq, refers to: YFP reporter | E. coli | PhoQ-PhoP variant library, together with: 10 µM Mg2+ | relative to: high Mg2+ state, higher = stronger signaling | fold induction | 2.83
